Measured values pooled from the literature.
Every numbered part comes from another study and shows a few of its results, in no order.

Study 1 — method: protein-binding microarray; molecule type: double-stranded DNA, one strand shown; sample: in vitro; concentration: 0.8 µM; notes: whole 60-bp probe, no competitor; direction: higher = stronger binding
Target: Centromere-binding protein 1, full length, N-terminal tag (CBF1, Saccharomyces cerevisiae, UniProt P17106, residues 1-351)
Chain of UniProt P17106 (whole entry, looked up): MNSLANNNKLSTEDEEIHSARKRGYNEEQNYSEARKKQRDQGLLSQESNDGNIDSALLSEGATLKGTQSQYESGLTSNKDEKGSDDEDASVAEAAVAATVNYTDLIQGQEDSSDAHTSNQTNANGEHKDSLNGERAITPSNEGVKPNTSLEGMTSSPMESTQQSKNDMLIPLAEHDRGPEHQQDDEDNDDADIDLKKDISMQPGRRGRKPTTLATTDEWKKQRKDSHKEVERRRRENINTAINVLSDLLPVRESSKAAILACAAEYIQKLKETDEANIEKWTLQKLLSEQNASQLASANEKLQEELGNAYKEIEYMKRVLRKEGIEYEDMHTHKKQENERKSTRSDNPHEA
For `GAAGTATATTCTTTTGACGTGGTCACCCTATCTTAGGTCTTGATTCGCTTGACGCTGCTG`, the fluorescence intensity was 506 a.u.
The fluorescence intensity of `GAAGGGCCAGTATTTTATCTGATGTAGGGCAAATAGGTCTTGATTCGCTTGACGCTGCTG` is reported as 529 a.u.
With `CTATGTGTGATGGACATCAGCATTCAATGTATATTCGTCTTGATTCGCTTGACGCTGCTG` the fluorescence intensity was 506 a.u.
The fluorescence intensity of `CTAGATAATATACTGGTGGTGAATGACAGCAAATTCGTCTTGATTCGCTTGACGCTGCTG` is reported as 697 a.u.

Study 2 — method: protein-binding microarray; molecule type: double-stranded DNA, one strand shown; sample: in vitro; concentration: not given; direction: higher = stronger binding
Target: Protein max, full length (MAX, Homo sapiens, UniProt P61244-2, residues 1-151)
Notes: k-mer, scored over probes, only values ≥0.25
With `CACGTTTC` the E-score was 0.419.
`AGGCATGA` gave an E-score of 0.294.
With `AGCATGCT` the E-score was 0.447.
With `CACCCATG` the E-score was 0.322.
`ATGTGTAC` gave an E-score of 0.334.

Study 3 — method: protein-binding microarray; molecule type: double-stranded DNA, one strand shown; sample: in vitro; concentration: 250 nM; notes: 60-bp whole probe; together with: salmon DNA 0.4 mg/ml; relative to: random background probes; direction: higher = stronger binding; constant ends, left off below: GCCTAGCAC … GTCTTGATTCGCTTGACGCTGCTG
Target: Interferon regulatory factor 5, full length, phosphomimetic (IRF5, Homo sapiens, UniProt Q13568-2, residues 1-514, K96S/S451D/S453D/S456D/S462D)
`TCGAGTCTGCAACATGGGACTGTGCTA` gave a log fluorescence of -0.147 z-score.
With `TTAGGTTTCCTTTTCCTTGAGTGCTAG` the log fluorescence was 1.52 z-score.
`TTAGGACTGGGGTTGCGGTTAGTGCTA` has a log fluorescence of -0.193 z-score.
The log fluorescence of `TCACCTCTCAACCATCCTACTGTGCTA` is reported as 0.0227 z-score.
With `AAGTTTCTCCTTTGTAAATAGTGCTAG` the log fluorescence was 3.63 z-score.
`GACGGTTTCCTTTTCCTGGCGTGCTAG` gave a log fluorescence of 1.12 z-score.
With `TTAGGTTTAGGGACTGGGTTAGTGCTA` the log fluorescence was 0.0664 z-score.

Further values, each from its own experiment
The fold induction of `PhoQ, residues 284 288 289 292 302 303 DDMDFR` is reported as 0.845 (PhoP, residues 12 14 15 18 19 STWGI (Escherichia coli, UniProt P23836); Sort-seq, refers to: YFP reporter; E. coli; PhoQ-PhoP variant library, together with: 10 µM Mg2+; relative to: high Mg2+ state, higher = stronger signaling).

Excerpt of the above (study 1):
The fluorescence intensity of `CTAGATAATATACTGGTGGTGAATGACAGCAAATTCGTCTTGATTCGCTTGACGCTGCTG` is reported as 697 a.u.
The fluorescence intensity of `GAAGGGCCAGTATTTTATCTGATGTAGGGCAAATAGGTCTTGATTCGCTTGACGCTGCTG` is reported as 529 a.u.
